# Experimental data pooled from the literature.
# Protocols differ between the studies behind these lines. ± marks the error that the study gave.
SMILES,test,system,conditions,quantity,result
Cl.[2H]C([2H])([2H])CC(=O)c1cnc(NC(=O)C2CC2)cc1Nc1cccc(-c2ncn(C([2H])([2H])[2H])n2)c1OC,,"human, fasted, multiple dose","oral, 10 mg once daily, tablet, day 14, geometric mean",terminal elimination rate constant,2.08e-05 s⁻¹
CN1C(=O)[C@@H](NC(=O)c2nnc(Cc3ccccc3)[nH]2)COc2cccnc21,,"healthy human, fasted, plasma","oral, 400 mg single dose, geometric mean",terminal half-life,9.01 h
Cc1cc(-c2nnc(N)nc2-c2ccc(F)cc2)cc(Cl)n1,,"human patients, plasma","oral, 200 mg capsule, single dose, arithmetic mean",terminal half-life,10.6 h
CCCn1cc(C)c2c(=O)[nH]c(-c3cc(S(=O)(=O)N4CCN(CC)CC4)ccc3OCC)nc21,LC-MS/MS,"human, plasma","100 mg, with: alcoholic beverage 0.5 g/kg",terminal elimination rate constant,4.44e-05 ± 1.28e-05 s⁻¹
NCCONC(=O)[C@@H]1CC[C@@H]2CN1C(=O)N2OS(=O)(=O)O,,"human, male, plasma","intravenous infusion, 2 g, single dose",terminal elimination rate constant,8.17e-05 s⁻¹
C[C@@]1(c2cc(NC(=O)c3ccc(C#N)cn3)ccc2F)C=CSC(N)=N1,,"elderly humans, both sexes, plasma","oral, 30 mg single dose, mean",terminal half-life,15.7 h
COc1nnc2ccc(N3CCC(c4ccc(OCCN5CCN(C)C(=O)[C@H]5C)cc4)CC3)nn12,,"human, plasma","oral, 40 mg once daily, multiple dose, monotherapy",terminal half-life,4.15 h
CN(C)CCCNC(=O)/C(=C/CCCCC(=O)NO)COc1cccc2ccccc12,,human patients,"intravenous, 250 mg/m2, day 1, single dose, mean",terminal volume of distribution,56.8 L
CN(CC#N)C(=O)C[C@H](Nc1nc2ccccc2[nH]1)c1cccc(C(F)(F)F)c1,,human,"intravenous infusion, 2 mg/kg, 10 mg/mL formulation",terminal half-life,5.29 ± 1.4 h
Cc1cc(-c2nccc3c2ccn3CC(=O)Nc2ccc(-c3cnccn3)cn2)ccn1,,"human, plasma","oral, 5 mg once daily, day 16, geometric mean",terminal half-life,12.2 h

# A few entries again:
SMILES,test,system,conditions,quantity,result
NCCONC(=O)[C@@H]1CC[C@@H]2CN1C(=O)N2OS(=O)(=O)O,,"human, male, plasma","intravenous infusion, 2 g, single dose",terminal elimination rate constant,8.17e-05 s⁻¹
C[C@@]1(c2cc(NC(=O)c3ccc(C#N)cn3)ccc2F)C=CSC(N)=N1,,"elderly humans, both sexes, plasma","oral, 30 mg single dose, mean",terminal half-life,15.7 h
